Measured values pooled from the literature.
Numbers after ± are the reported error.

SMILES | assay | test system | conditions | scale | endpoint | result
N=C(N)NCc1ccc(C(=O)NCCCC[C@H](NC(=O)N[C@@H](CCC(=O)O)C(=O)O)C(=O)O)cc1[131I] | – | SCID mouse, PC-3 xenografts, bone | 4 h | – | tissue uptake | 0.17 ± 0.06 %ID/g
CC(=O)[O-].F[P-](F)(F)(F)(F)F.[Co+2].c1ccc(CN2CCCN3CCN(CCCN(Cc4ccccc4)CC3)CC2)cc1 | cyclic voltammetry, measured: first Co2+/Co3+ couple | acetonitrile | – | reference: SHE | E1/2 | 0.392 V
NS(=O)(=O)NCC(F)(F)c1ccccc1F | rotarod impairment | mouse | intraperitoneal | – | TD50 | 217 ± 7 mg/kg
CC(C)[C@H](NC(=O)CNC(=O)[C@H](CCC(N)=O)NC(=O)[C@H](C)N)C(=O)O | – | healthy male volunteers | intravenous, 90 mg/kg/h, 2 h, added: LPS 2 ng/kg | – | subjects with serious AE | 0%
C[C@@H](O)[C@H](NC(=O)[C@H](CCC(=O)O)NC(=O)[C@H](Cc1ccccc1)NC(=O)[C@H](Cc1c[nH]c2ccccc12)NC(=O)[C@H](CCCCN)NC(=O)[C@H](CCCCN)NC(=O)[C@H](CCCCN)NC(=S)Nc1ccc2c(c1)C(=O)OC21c2ccc(O)cc2Oc2cc(O)ccc21)C(=O)N[C@@H](Cc1c[nH]c2ccccc12)C(=O)N[C@@H](Cc1ccccc1)C(=O)N[C@H](C(=O)N[C@@H](CCC(=O)O)C(=O)N[C@@H](Cc1c[nH]c2ccccc12)C(=O)N1CCC[C@H]1C(=O)N[C@@H](CCCCN)C(=O)N[C@@H](CCCCN)C(=O)N[C@@H](CCCCN)C(=O)N[C@@H](CCCCN)C(=O)O)[C@@H](C)O | – | gelatin hydrogel 50 mg/mL | 56.6 µg loaded, glutaraldehyde cross-linked, added: PBS | – | cumulative peptide release | 44 µg
[11CH3]n1c(=O)n(CCCO)c(=O)c2c1nc(Oc1cccc(OC(F)(F)F)c1)n2Cc1ccc(Cl)cc1 | ex vivo biodistribution | Sprague Dawley rat, muscle | 30 min post injection | – | tracer uptake | 0.5 ± 0.02 %ID/g
COC(=O)C[C@](O)(CCCC(C)(C)OC(C)=O)C(=O)O[C@@H]1C(OC)=C[C@]23CCCN2CCc2cc4c(cc2[C@H]13)OCO4 | – | CD1 mouse, heart | oral, 1 mg/kg, 2 h | – | tissue concentration | 171 ng/mL
NC(=O)CC[C@@H]1NC(=O)[C@H](Cc2ccccc2)NC(=O)[C@H](Cc2ccc(O)cc2)NC(=O)[C@@H](N)CSSC[C@@H](C(=O)N2CCC[C@H]2C(=O)N[C@@H](CCCN=C(N)N)C(=O)NCC(N)=O)NC(=O)[C@H](CC(N)=O)NC1=O | radioimmunoassay | Sprague-Dawley rat, plasma | intra-arterial, 5 ng/kg, 5 min | reference: 1 min post-injection | plasma level reduction | 14%
O=C(O)CC[C@H](NC(=O)O[C@@H](CCCCNC(=O)c1ccc([18F])cc1)C(=O)O)C(=O)O | – | mouse, PC-3 PIP/flu xenografts, spleen | 180 min | – | tissue uptake | 0.13 ± 0.08 %ID/g
CC[C@H](C)[C@@H]1NC(=O)[C@H](CCCCN)NC(=O)[C@H](CCCCN)NC(=O)[C@H](Cc2ccc(O)cc2)NC(=O)[C@H](CC(C)C)NC(=O)[C@@H]2CCCN2C(=O)[C@H](C)NC(=O)CNC(=O)CNC(=O)[C@H](CO)NC(=O)CNC(=O)CNC(=O)[C@H](CC(N)=O)NC(=O)[C@H](CCC(=O)O)NC(=O)[C@H](CC(C)C)NC(=O)[C@H](CC(C)C)NC(=O)[C@H](CCCCN)NC(=O)[C@H](CCCCN)NC(=O)[C@H]([C@@H](C)CC)NC(=O)[C@H]([C@@H](C)CC)NC(=O)[C@H](CCCCN)NC(=O)[C@H](CCCCN)NC(=O)[C@H](Cc2ccc(O)cc2)NC(=O)[C@H](CC(C)C)NC(=O)[C@@H]2CCCN2C(=O)[C@H](C)NC(=O)CNC(=O)CNC(=O)[C@H](CO)NC(=O)CNC(=O)CNC(=O)[C@H](CC(N)=O)NC(=O)[C@H](CCC(=O)O)NC(=O)[C@H](CC(C)C)NC(=O)[C@H](CC(C)C)NC(=O)[C@H](CCCCN)NC(=O)[C@H](CCCCN)NC(=O)[C@H]([C@@H](C)CC)NC1=O | hemolysis | uninfected human erythrocytes | 1 h | – | HC10 | 79.9 ± 8.3 µM
CC(C)[C@@H]1NC(=O)[C@H](Cc2ccccc2)NC(=O)[C@H](Cc2ccc(O)cc2)NC(=O)CCSSC[C@@H](C(=O)N2CCC[C@H]2C(=O)N[C@H](CCCNC(=N)N)C(=O)NCC(N)=O)NC(=O)[C@H](CCC(N)=O)NC1=O | – | Wistar rat, blood | intravenous, 1 µg/kg single dose, 72 h | – | GGT | 2.8 ± 0.8 IU/L
C/C(=N\OCCCN1CCCCC1)c1ccc(C(F)(F)F)cc1 | – | C57BL/6 mouse | intravenous, 5 mg/kg | – | clearance | 6.46 ± 1.07 L/h/kg
CN(C)C(CNC(=O)Nc1cc(C(F)(F)F)ccc1N1CCOCC1)c1ccncc1 (centres unmarked) | – | mouse, serum | intraperitoneal, 360 mg/kg single dose | – | serum calcium | 9.1 mg/dL
C#Cc1c(F)ccc2cc(O)cc(-c3ncc4c(N5CC6CCC(C5)N6C(=O)OCCCCC)nc(OC[C@@]56CCCN5C[C@H](F)C6)nc4c3F)c12 | chemical stability | simulated intestinal fluid | 1 µM, 30 min | – | compound remaining | 115%
Cc1cc(Nc2nc(C[C@@]3(C(=O)O)CCN(Cc4cccc(Cl)c4F)[C@H](C)C3)cc(C)c2F)n[nH]1 | – | Sprague-Dawley rat, plasma | intravenous, 0.5 mg/kg, single dose | – | Vd | 0.278 L/kg
CCC(CC)OC1C=C(C(=O)OC(C)OC(=O)C(N)C(C)C)CC(NC(=N)N)C1NC(C)=O (mixture of isomers) | – | mice, plasma | po-fasted, 10 mg/kg, 24 h | – | AUC(0-24 h) | 3100 ± 558 ng·h/mL

SMILES | assay | test system | conditions | scale | endpoint | result
CCN(CC)CCOc1ccc(-c2nnn(Cc3ccc(OC)cc3)c2N)cc1 | – | Beagle dog | oral, 20 mg/kg | – | oral bioavailability | 68.8%
CC[C@H](C)C(=O)N1CCC(NC(=O)Nc2ccc(OC(F)(F)F)c(F)c2)CC1 | – | healthy volunteers | oral, 0.5 mg single dose, 14 (unit not given) | – | subjects with moderate TEAE | 0%
CC(C)[C@H](NC(=O)CNC(=O)[C@H](CCC(N)=O)NC(=O)[C@H](C)N)C(=O)O | – | human | intravenous infusion, 45 mg/kg/h, 2 h infusion | – | subjects with serious adverse events | 0%
Cc1cc(O)cc(C)c1CC(N)C(=O)NC1CCNc2ccc(CN3CCc4ccccc4C3)cc21 (centres unmarked) | chemical stability | mouse, plasma | 30 min | – | compound remaining | 100%
C/C=C/C=C/C/C=C/CCCCCCCc1cccc(O)c1O | – | female Kunming mice, tumour-bearing, liver | intravenous, 10 mg/kg, 1 h | – | tissue concentration | 31200 ± 3110 ng/g
CSCC[C@H](NC(=O)CNC(=O)[C@H](CC(=O)O)NC(=O)[C@@H](NC(=O)[C@@H](NC(=O)[C@@H](NC(=O)CNC(=O)[C@H](CCC(N)=O)NC(=O)[C@H](CCSC)NC(=O)[C@H](CC(=O)O)NC(=O)[C@H](C)NC(=O)[C@H](C)NC(=O)[C@@H](NC(=O)[C@H](CO)NC(=O)[C@@H](N)CC(C)C)[C@@H](C)O)C(C)C)C(C)C)[C@@H](C)O)C(=O)N[C@@H](C)C(=O)N[C@@H](CO)C(=O)NCC(=O)N[C@@H](CC(C)C)C(=O)N[C@@H](CC(=O)O)C(=O)N[C@@H](CCCCN)C(=O)N[C@@H](CC(=O)O)C(=O)N[C@@H](Cc1ccc(O)cc1)C(=O)N[C@@H](CC(C)C)C(=O)N[C@@H](CCCCN)C(=O)N1CCC[C@H]1C(=O)N[C@@H](CC(=O)O)C(=O)N[C@@H](CC(=O)O)C(=O)O | – | patients, serum | intravenous infusion | – | Tmax | < 10 min
CCNc1cc2[o+]c3cc(NCC)c(C)cc3c(-c3ccccc3C(=O)OCCOCC[18F])c2cc1C | – | rat | 120 min | reference: heart over lung | tissue uptake ratio | 2.2
CCCCC[C@@H]1OC(=O)[C@@H](C)N(C)C(=O)[C@H](CCCCC)OC(=O)[C@@H](C)N(C)C(=O)[C@H](CCCCC)OC(=O)[C@@H](C)N(C)C(=O)[C@H](CCCCC)OC(=O)[C@@H](C)N(C)C1=O | PAMPA | lecithin in n-dodecane membrane | 500 µM, time not given, pH 7.4, PBS with TPGS and DMSO | – | recovery | 94%
[2H]C([2H])([2H])C([2H])([2H])C([2H])([2H])OC(C(=O)OC1CCNCC1)(c1ccccc1)c1ccccc1 | – | male human, plasma | oral, 8 mg, multiple doses | – | Tmax | 186 min
CN[C@](C)(C[18F])C(=O)O | – | SCID mouse MDA-MB-468 xenograft, brain | 60 min, post injection | – | tissue uptake | 0.2 ± 0.04 %ID/g
CC[C@@H]1C[C@]1(NC(=O)[C@@H]1C[C@@]2(CN1C(=O)[C@@H](NC(=O)[C@@H](NC(=O)[C@@H]1CCCCN1C(C)C)C1CCCCC1)C(C)(C)C)C(C)(C)C21CCC1)C(=O)NS(=O)(=O)N1CCCC1 | measured: Diarrhea | human | oral, 50 mg, simultaneous dosing on day 2, added: ritonavir 100 mg | – | subjects with adverse event | 0%
COc1ccc(C)cc1NC(=O)OC1CC2CCCC(C1)N2Cc1ccc(CC[18F])cc1 (centres unmarked) | – | BALB/c mice, EMT6 tumour | 5 min | reference: tumour over blood | tumour to tissue ratio | 0.82
CSCC[C@@H]1NC(=O)[C@@H]2CSSC[C@H](NC(=O)[C@H](CO)NC(=O)[C@H](C)N)C(=O)N[C@@H](CCCNC(=N)N)C(=O)N[C@@H]([C@@H](C)O)C(=O)N3CCC[C@H]3C(=O)N[C@@H](CCCCN)C(=O)N[C@@H](CC(=O)O)C(=O)N[C@H]3CSSC[C@H](NC(=O)[C@H](CCCCN)NC(=O)[C@H](CCCNC(=N)N)NC(=O)[C@H](CC(N)=O)NC1=O)C(=O)N[C@@H](CCCCN)C(=O)N[C@H]1CSSC[C@H](NC(=O)[C@@H]4CCCN4C(=O)[C@H](CC(=O)O)NC(=O)[C@H](C)NC3=O)C(=O)N[C@@H](C)C(=O)N[C@@H](CCCCN)C(=O)N[C@@H](CCC(=O)O)C(=O)N[C@@H]([C@@H](C)O)C(=O)NCC(=O)N[C@@H](CSSC[C@@H](C(N)=O)NC(=O)[C@H](CCCNC(=N)N)NC(=O)[C@H](CC(N)=O)NC1=O)C(=O)N1CCC[C@H]1C(=O)N[C@@H](Cc1ccc(O)cc1)C(=O)NCC(=O)N[C@@H](CCCCN)C(=O)N2 | – | DA rat, pristane-induced arthritis, serum | subcutaneous, single 0.1 mg/kg at onset, end of 21-day trial | – | osmolality | 264 mOsm/kg
Cc1ncc2c(n1)CN(C(=O)Nc1nc(-c3cccs3)ccc1N)C2 | – | beagle dog, male | oral, 14 days daily | – | NOAEL | 120 mg/kg
O=C(O)[c-]1cccc1.O=C(Oc1ccc(-n2cccc2)cc1)[c-]1cccc1.[Fe+2] | cyclic voltammetry | acetonitrile | – | reference: Ag/AgCl | E1/2 | 964 mV
CCCCCCCCCCCCC(=O)O.O=C1CCCC2C3CCCN4CCCC(CN12)C34 (centres unmarked) | electrical conductivity | water | 303.15 K | – | standard Gibbs energy of aggregation | -35.5 kJ/mol
